Assay results gathered from unrelated publications.
Lines come from different studies, so protocols differ. Values joined by “and” are separate records of one study, mostly repeats; a detail may differ. Numbers after ± are the reported error. Converted amounts (≈) assume the structure as drawn.
rep main protease: Replicase polyprotein 1ab, main protease (rep, Severe acute respiratory syndrome coronavirus 2, UniProt P0DTD1)
UniProt P0A8T7, sequence (whole entry, looked up): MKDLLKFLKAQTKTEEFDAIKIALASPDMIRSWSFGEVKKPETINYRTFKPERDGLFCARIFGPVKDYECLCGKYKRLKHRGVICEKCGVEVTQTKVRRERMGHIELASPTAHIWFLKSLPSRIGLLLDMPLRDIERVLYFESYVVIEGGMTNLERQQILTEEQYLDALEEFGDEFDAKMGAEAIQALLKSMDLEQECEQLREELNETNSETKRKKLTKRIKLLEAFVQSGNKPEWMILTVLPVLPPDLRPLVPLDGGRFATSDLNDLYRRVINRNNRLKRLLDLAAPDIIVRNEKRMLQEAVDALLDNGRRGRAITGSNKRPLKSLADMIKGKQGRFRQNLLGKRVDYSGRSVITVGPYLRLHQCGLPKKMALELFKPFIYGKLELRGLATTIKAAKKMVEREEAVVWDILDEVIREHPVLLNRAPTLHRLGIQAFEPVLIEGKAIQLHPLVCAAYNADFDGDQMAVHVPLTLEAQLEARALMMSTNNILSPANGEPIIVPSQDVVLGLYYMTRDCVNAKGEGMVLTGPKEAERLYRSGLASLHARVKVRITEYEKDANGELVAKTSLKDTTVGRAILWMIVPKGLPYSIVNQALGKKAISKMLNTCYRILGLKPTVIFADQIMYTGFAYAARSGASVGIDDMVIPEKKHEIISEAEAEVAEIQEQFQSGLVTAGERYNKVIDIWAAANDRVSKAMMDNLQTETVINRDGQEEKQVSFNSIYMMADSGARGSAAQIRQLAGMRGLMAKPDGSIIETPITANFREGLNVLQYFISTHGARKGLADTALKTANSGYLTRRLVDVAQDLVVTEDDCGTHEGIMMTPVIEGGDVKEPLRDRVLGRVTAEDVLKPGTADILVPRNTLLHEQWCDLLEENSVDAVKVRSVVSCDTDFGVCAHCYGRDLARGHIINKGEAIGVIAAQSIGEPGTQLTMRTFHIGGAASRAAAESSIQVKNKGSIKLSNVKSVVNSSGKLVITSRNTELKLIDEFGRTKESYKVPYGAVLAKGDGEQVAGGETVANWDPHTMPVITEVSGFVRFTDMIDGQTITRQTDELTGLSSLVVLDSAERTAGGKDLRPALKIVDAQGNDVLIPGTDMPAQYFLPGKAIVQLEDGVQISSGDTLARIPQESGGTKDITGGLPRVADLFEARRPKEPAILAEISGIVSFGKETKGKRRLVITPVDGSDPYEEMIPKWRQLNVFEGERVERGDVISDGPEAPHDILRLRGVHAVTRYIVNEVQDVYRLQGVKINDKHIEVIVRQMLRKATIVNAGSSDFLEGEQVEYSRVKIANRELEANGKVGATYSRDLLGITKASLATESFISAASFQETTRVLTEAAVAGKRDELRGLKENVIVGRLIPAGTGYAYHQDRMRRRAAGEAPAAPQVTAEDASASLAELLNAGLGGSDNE
UniProt P0A8V2, sequence (whole entry, looked up): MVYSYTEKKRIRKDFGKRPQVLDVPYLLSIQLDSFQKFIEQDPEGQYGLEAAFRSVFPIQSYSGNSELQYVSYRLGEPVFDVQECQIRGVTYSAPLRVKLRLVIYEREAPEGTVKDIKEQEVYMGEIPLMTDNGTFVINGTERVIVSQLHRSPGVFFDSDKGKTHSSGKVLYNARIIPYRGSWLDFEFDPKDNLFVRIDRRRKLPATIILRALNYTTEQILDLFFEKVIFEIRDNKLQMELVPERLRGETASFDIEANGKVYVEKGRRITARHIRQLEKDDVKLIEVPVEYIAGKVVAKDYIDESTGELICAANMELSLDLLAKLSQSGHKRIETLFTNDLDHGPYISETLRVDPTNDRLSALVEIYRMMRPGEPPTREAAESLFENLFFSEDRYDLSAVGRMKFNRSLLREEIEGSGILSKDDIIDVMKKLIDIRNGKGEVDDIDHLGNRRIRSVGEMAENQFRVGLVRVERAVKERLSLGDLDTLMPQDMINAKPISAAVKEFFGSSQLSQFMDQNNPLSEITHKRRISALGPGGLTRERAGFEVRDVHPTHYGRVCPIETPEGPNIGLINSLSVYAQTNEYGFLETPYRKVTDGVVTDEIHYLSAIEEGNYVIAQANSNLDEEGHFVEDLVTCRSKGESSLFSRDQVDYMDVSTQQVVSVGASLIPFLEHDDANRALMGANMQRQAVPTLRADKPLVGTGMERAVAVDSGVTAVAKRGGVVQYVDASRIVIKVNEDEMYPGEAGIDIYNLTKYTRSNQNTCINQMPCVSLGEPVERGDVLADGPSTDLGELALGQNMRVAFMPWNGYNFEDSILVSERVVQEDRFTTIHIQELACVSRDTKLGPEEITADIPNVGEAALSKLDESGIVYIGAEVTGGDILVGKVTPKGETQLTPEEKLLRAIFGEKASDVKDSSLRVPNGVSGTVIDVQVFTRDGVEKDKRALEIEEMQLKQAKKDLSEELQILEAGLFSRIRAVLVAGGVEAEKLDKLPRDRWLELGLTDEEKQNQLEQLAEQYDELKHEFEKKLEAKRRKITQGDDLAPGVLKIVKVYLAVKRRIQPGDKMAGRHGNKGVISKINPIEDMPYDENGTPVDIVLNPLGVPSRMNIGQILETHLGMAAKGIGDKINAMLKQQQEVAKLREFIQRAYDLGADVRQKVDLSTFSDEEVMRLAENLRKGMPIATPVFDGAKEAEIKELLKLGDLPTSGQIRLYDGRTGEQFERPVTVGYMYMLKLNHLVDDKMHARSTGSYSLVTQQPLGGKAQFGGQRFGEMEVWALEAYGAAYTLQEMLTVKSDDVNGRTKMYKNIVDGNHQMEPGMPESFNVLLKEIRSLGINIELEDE

SMILES | tested on | test | test system | setting | how to read | measurement | result
CCc1ccc(Sc2cc(C(=O)NCCCN3CCC(C)CC3)c3ccccc3n2)cc1 | SARS-CoV-2 | cytopathic effect | USA_WA1/2020 | round 1, 5-point |  | efficacy | 62.4%
CC[C@H](C)[C@H](NC(=O)[C@H](CC(C)C)NC(=O)[C@H](Cc1c[nH]c2ccccc12)NC(=O)[C@H](CCC(N)=O)NC(=O)[C@@H](NC(=O)[C@H](Cc1ccccc1)NC(=O)[C@H](C)NC(=O)[C@H](CCCCNC(=O)COCCOCCNC(=O)COCCOCCNC(=O)CC[C@H](NC(=O)CCCCCCCCCCCCCCCCCCC(=O)O)C(=O)O)NC(=O)[C@H](CCC(N)=O)NC(=O)[C@H](C)NC(=O)[C@@H](NC(=O)[C@H](CCCCN)NC(=O)[C@H](CC(=O)O)NC(=O)[C@H](CC(C)C)NC(=O)C(C)(C)NC(=O)[C@@H](NC(=O)[C@H](CO)NC(=O)[C@H](Cc1ccc(O)cc1)NC(=O)[C@H](CC(=O)O)NC(=O)[C@H](CO)NC(=O)[C@@H](NC(=O)[C@H](Cc1ccccc1)NC(=O)[C@@H](NC(=O)CNC(=O)[C@H](CCC(=O)O)NC(=O)C(C)(C)NC(=O)[C@@H](N)Cc1ccc(O)cc1)[C@@H](C)O)[C@@H](C)O)[C@@H](C)CC)[C@@H](C)CC)C(C)C)C(=O)N[C@@H](C)C(=O)NCC(=O)NCC(=O)N1CCC[C@H]1C(=O)N[C@@H](CO)C(=O)N[C@@H](CO)C(=O)NCC(=O)N[C@@H](C)C(=O)N1CCC[C@H]1C(=O)N1CCC[C@H]1C(=O)N1CCC[C@H]1C(=O)N[C@@H](CO)C(N)=O |  |  | healthy human subjects, serum | 1.5 mg multiple ascending, baseline |  | total ALT | 33.7 ± 18.5 U/L
CC(C)=CCc1c(O)ccc(C(=O)/C=C/c2ccc(O)cc2)c1O | SARS-CoV-2 | viral cytopathic effect | Vero E6 | 12.5 µM |  | mean inhibition | 0%
O=C(Nc1ccc(N2CCCN(C(=O)c3cnccn3)CC2)nc1)c1cccc(Br)c1 | Mycobacterium tuberculosis | bacterial growth | H37Ra-lux | 168 h |  | IC90 | > 64 µM
CN(C)S(=O)(=O)NCC1CCOC2(CCN(C(=O)C(=O)c3ccccc3)CC2)C1 (centres unmarked) | Venezuelan equine encephalitis virus | viral replication |  | 40 µM |  | inhibition | 40%
Nc1ncnc2c([C@@H]3N[C@H](CO)[C@@H](O)[C@H]3O)c[nH]c12 | Marburg virus | viral replication, antibody staining | HeLa, Musoke | 6.3 µM, 24 h |  | infected cells | 8.3%
CC(C)CN(C[C@@H](O)[C@H](Cc1ccccc1)NC(=O)O[C@H]1CCOC1)S(=O)(=O)c1ccc(N)cc1 | rep main protease | reporter gene (mKate2), inhibitor |  | 20 µM |  | inhibition | -0.0641%
COc1ccc(C[C@@H]2c3cc(Oc4cc(C[C@@H]5c6cc(O)c(OC)cc6CCN5C)ccc4O)c(OC)cc3CCN2C)cc1 | SARS-CoV-2 | cytopathic effect | Vero E6 | 50 µM, replicate run |  | mean inhibition | 16.7%
O=C(Nc1ncc(CCc2ccccc2)s1)C1CCCC1 | Histoplasma capsulatum | microbial growth |  |  |  | MIC | 2.5 µM (≈ 0.751 µg/mL)
CC(=O)O[C@@H]1[C@H](N)[C@@H](OP(=O)(O)O)[C@@]2(C(=O)O)CS[C@@](O)(C(N)=O)[C@@H]1O2 | DNA-directed RNA polymerase subunit beta' / DNA-directed RNA polymerase subunit beta (rpoC/rpoB, Escherichia coli, UniProt P0A8T7+P0A8V2) | binding to elongation complex, 6-MI fluorescence titration | wild-type RNAP | riboside RNA 3′-end Adenine |  | Kd | 0.13 ± 0.04 µM
NC(=O)c1ncn([C@@H]2O[C@H](CO)[C@@H](O)[C@H]2O)n1 | SARS-CoV | virus yield | Urbani | 48 h |  | EC90 | 454 ± 236 µM
Cc1nc2n(n1)CC(=O)N[C@@H](C(C)C)CN(C(=O)c1cc(C)oc1C)CC(=O)N[C@@H](CC(C)C)c1nc(cs1)C(=O)N[C@H]2Cc1ccccc1 | Lassa mammarenavirus | viral replication | Huh-7 | 10 µM, 72 h |  | remaining activity | 90%
COC(=O)[C@H]1[C@H]2C[C@@H]3c4[nH]c5ccccc5c4CCN3C[C@H]2C[C@@H](OC(=O)c2cc(OC)c(OC)c(OC)c2)[C@@H]1OC | SARS-CoV-2 | viral replication, GFP plate reader screen | BetaCov/Belgium/GHB-03021/2020 | cell-based |  | EC50 | > 20 µM
O=C(Nc1ccc(N2CCN(C(=O)c3cnccn3)CC2)nc1)c1ccccc1I | Mycobacterium tuberculosis | bacterial growth | H37Ra-lux | 168 h |  | IC90 | > 64 µM
Cc1cc2cc(Oc3ccnc(Nc4cccc(CS(=O)(=O)NCCN(C)C)c4)n3)ccc2[nH]1 | SARS-CoV-2 | viral replication, GFP plate reader screen |  | cell-based |  | EC50 | > 10 µM
O=c1ccn([C@@H]2O[C@](F)(CO)[C@@H](O)[C@H]2O)c(=O)[nH]1 | Andes virus |  |  | concentration not given |  | viral replication | inhibited
CN1CCN(C(c2ccccc2)c2ccc(Cl)cc2)CC1 (centres unmarked) | Zaire ebolavirus |  | HFF-1, Kikwit | 48 h |  | IC50 | 3.2 µM
Cn1c(=O)ccc2ccc(F)c(CCNC[C@H]3CN(c4cnc5c(n4)NC(=O)CO5)C(=O)O3)c21 | Burkholderia mallei |  |  |  |  | MIC90 | 1 µg/mL (≈ 2.13 µM)
OCC1CCCN(CCNC2CCN(c3ccccc3Cl)CC2)C1 (centres unmarked) | Lassa mammarenavirus | viral replication | Huh-7 | 10 µM, 72 h |  | remaining activity | 48%
Cc1ccc(-c2cccc(CN3CCCC(c4nc5ccc(C)cc5c(=O)[nH]4)C3)c2)c(C)c1 (centres unmarked) | SARS-CoV-2 | cytopathic effect | USA_WA1/2020 | round 2, 5-point |  | efficacy | 111%
O=C(CCC1CCCCC1)Nc1ncc(CC2CCCCC2)s1 | Histoplasma capsulatum | microbial growth |  |  |  | MIC | 2.5 to 5 µM (≈ 0.836 to 1.67 µg/mL)
CCn1nc(C)c(C(=O)NCc2ccc(-n3ccnc3C)cc2)c1C | Lassa mammarenavirus | viral replication | Huh-7 | 10 µM, 72 h |  | remaining activity | 41%
CC(C)OC(=O)[C@@H](N)Cc1ccc(OP2(=O)CO[C@@H](Cn3ccc(N)nc3=O)CO2)cc1 (some centres unmarked) | vaccinia virus | viral replication |  |  |  | IC50 | 30 µM
Cc1cc(N2Cc3cnn(CCO)c3C2)c2cc3c(cc2n1)OCO3 | Lassa mammarenavirus | viral replication | Huh-7 | 10 µM, 72 h |  | remaining activity | 41%
COc1ccc(C#Cc2ccccc2)c(CCC(C)N(C)CCc2ccc(OC)c(OC)c2)c1 (centres unmarked) | SARS-CoV-2 | viral replication, GFP plate reader screen | BetaCov/Belgium/GHB-03021/2020 | cell-based |  | EC50 | 4.27 µM
O=C1c2c(O)c(=O)ccn2N([C@@H]2c3ccccc3SCc3c2ccc(F)c3F)[C@@H]2COCCN12 | Influenza A virus | viral replication | A(H9N2) A/quail/Bangladesh/30835/2016 | mean |  | EC50 | 0.00036 ± 6e-05 µM
CC(C)(C)c1ccc(CN2CCN(C(c3ccccc3)c3ccc(Cl)cc3)CC2)cc1 (centres unmarked) | Marburg virus | pseudovirus entry | A549 |  | baseline: CC50 over IC50 | selectivity index | 4

SMILES | tested on | test | test system | setting | how to read | measurement | result
Cc1ccnc(OC2CCOC3(CCN(C(=O)C4(c5ccccc5)CCCC4)CC3)C2)c1 (centres unmarked) | Venezuelan equine encephalitis virus | viral replication |  |  |  | EC50 | 20 µM
COc1cccc(-c2ccc(CN3CCCC(c4nc5ccc(C)cc5c(=O)[nH]4)C3)cc2)c1 (centres unmarked) | SARS-CoV-2 | cytopathic effect, cell-based CPE | USA_WA1/2020 |  |  | AC50 | 12.6 µM
COCC1(C(=O)N2CC(=O)N[C@@H](CC(C)C)c3nc(cs3)C(=O)N[C@@H](Cc3ccccc3)c3nc(C)nn3CC(=O)N[C@@H](C(C)C)C2)CCC1 | Lassa mammarenavirus | viral replication | Huh-7 | 10 µM, 72 h |  | remaining activity | 92%
O=C(O)CCC(=O)C(=O)O | rep main protease | reporter gene (mKate2), inhibitor |  | 20 µM |  | inhibition | -0.263%
COc1ccc2c(c1)c(CC(=O)O)c(C)n2C(=O)c1ccc(Cl)cc1 | SARS-CoV-2 | viral replication, GFP plate reader screen |  | cell-based |  | EC50 | > 100 µM
Cn1cnc(Cn2c(=O)[nH]/c(=N\c3cc4cn(C)nc4cc3Cl)n(Cc3cc(F)c(F)cc3F)c2=O)n1 |  |  | human, mild renal impairment, plasma | oral, 375 mg single dose |  | terminal half-life | 52.1 h
CCc1c(C(=O)C(N)=O)c2c(OCC(=O)O)cccc2n1Cc1ccccc1 | Daboia russelii |  | mouse | intravenous, 60 µg/mouse, 24 h, drug mixture, with: KA venom 2.5 x LD50 preincubated |  | survival | 0%
CCn1c2ccccc2c2cc(CN3CCN(Cc4cccc(Cl)c4)CC3)ccc21 | SARS-CoV-2 | cytopathic effect, cell-based CPE | USA_WA1/2020 | round 2, 5-point dilution |  | AC50 | 12.6 µM
CNCCC=C1c2ccccc2C=Cc2ccccc21 | SARS-CoV-2 | viral replication, GFP plate reader screen | BetaCov/Belgium/GHB-03021/2020 | cell-based |  | EC50 | > 50.1 µM
CN(C)c1cccc(C(=O)N2CCC3(CCCN(CCc4ccccc4)C3)C2)c1 (centres unmarked) | Lassa mammarenavirus | viral replication | Huh-7 | 10 µM, 72 h |  | remaining activity | 0%
Cc1ncc([N+](=O)[O-])n1CCO | Clostridium perfringens |  |  |  |  | MIC90 | 1 µg/mL (≈ 5.84 µM)
Cc1ccc(Nc2ccnc(N3CCCC3C(=O)NCCCc3ccccc3)n2)cc1 (centres unmarked) | SARS-CoV-2 | cytopathic effect | USA_WA1/2020 | round 1, 5-point |  | maximum response | 36.1%
COc1ccccc1OCCNCC(O)COc1cccc2[nH]c3ccccc3c12 (centres unmarked) | SARS-CoV-2 | viral replication, high-content imaging screen |  | cell-based |  | EC50 | 10 µM
CNC(=O)[C@@H](NC(=O)[C@H](CC(C)C)[C@H](O)C(=O)NO)C(C)(C)C | Daboia russelii |  | C2C12 | 100 µM, with: Daboia russelii venom MP | baseline: venom alone | viability difference | -46.6%
Nc1ncnc2c1ncn2[C@@H]1O[C@@H]2COP(=O)(O)O[C@H]3[C@@H](O)[C@H](n4cnc5c(=O)[nH]cnc54)O[C@@H]3COP(=O)(O)O[C@H]2[C@H]1O | Chikungunya virus | upregulated Reactome pathway, RNA sequencing, refers to: S Phase (R-HSA-69242) | HFF-1 |  | baseline: CHIKV-infected untreated | fold enrichment | 2.33
CC[C@@H]1C(=O)N(C)c2cnc(Nc3ccc(C(=O)N[C@H]4CC[C@H](N5CCN(CC6CC6)CC5)CC4)cc3OC)nc2N1C(C)C | SARS-CoV-2 | viral replication, high-content imaging screen |  | cell-based |  | EC50 | > 50.1 µM
CCC(CC)COC(=O)[C@H](C)N[P@](=O)(OC[C@H]1O[C@@](C#N)(c2ccc3c(N)ncnn23)[C@H](O)[C@@H]1O)Oc1ccccc1 | SARS-CoV-2 replicon | N-HiBiT luminescence | HeLa | 0.01 µM | baseline: DMSO | replicon activity | 166% and 89.1% and 111% and 94.5%
CC(C)C[C@@H]1NC(=O)c2coc(n2)[C@H](Cc2ccccc2)NC(=O)CN(C(=O)CN(C)C2CCCC2)CCNC(=O)c2csc1n2 | Lassa mammarenavirus | viral replication | Huh-7 | 10 µM, 72 h |  | remaining activity | 52%
Cc1ccc(Nc2ccnc(N3CCC(C(=O)NCCCc4ccccc4)CC3)n2)cc1 | SARS-CoV-2 | cytopathic effect | USA_WA1/2020 | round 2, 5-point |  | maximum response | 50%
CCCCCCCCCCCCN(C)C(=O)CP(=O)(O)O | Bacillus anthracis |  | 2 strains |  |  | MIC90 | 0.097 µg/mL (≈ 0.302 µM)
O=C(CC(c1ccccc1)c1ccc(F)cc1)NCc1ccno1 (centres unmarked) | Lassa mammarenavirus | viral replication | Huh-7 | 10 µM, 72 h |  | remaining activity | 45%
CCC1CCCCN1CCCNC(=O)c1sc2nc(C)cc(C)c2c1-n1cccc1 (centres unmarked) | SARS-CoV-2 | cytopathic effect | USA_WA1/2020 | round 1, 5-point |  | efficacy | 102%
O=C(/C=C/c1ccc(O)c(O)c1/C=C/c1ccc(O)c(O)c1)O[C@H](Cc1ccc(O)c(O)c1)C(=O)O | Severe acute respiratory syndrome coronavirus 2 | cytopathic effect | Vero C1008 | 1.562 µM |  | inhibition | 0%
O=C(NCc1ccccc1Cl)C1CCCN(Cc2cccc(-c3ccc(F)cc3F)c2)C1 (centres unmarked) | SARS-CoV-2 | cytopathic effect, cell-based CPE | USA_WA1/2020 |  |  | AC50 | 14.1 µM
CNCC(O)CC12CCC(c3ccccc31)c1ccccc12 (centres unmarked) | SARS-CoV-2 | viral replication, GFP plate reader screen |  | cell-based |  | EC50 | > 100 µM
O=C(Nc1ccc(N2CCN(C(=O)c3cnccn3)CC2)nc1)c1ccncc1 | Mycobacterium tuberculosis | bacterial growth | H37Ra-lux | 168 h |  | IC90 | > 64 µM
